Experimental data from different studies.
Each numbered part is a random draw from the data of one study; scales do not carry over between parts. Changes are numbered by the printed parent chain.

Set 1
Target: RNA binding protein fox-1 homolog 2, RRM domain, GST-SBP tag (RBFOX2, Homo sapiens, UniProt O43251-10, residues 100-194)
Method: RNA Bind-n-Seq
Form: RNA
Sample: in vitro
Tested at: 365 nM
Notes: natural RNA segment, single round, ends assumed
Reference: no-protein control
Reading: higher = stronger binding
Residues (chain): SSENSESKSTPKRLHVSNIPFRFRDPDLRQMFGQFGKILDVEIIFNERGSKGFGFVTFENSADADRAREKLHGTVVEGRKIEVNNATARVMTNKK
| Strand | RBNS enrichment (R) |
| --- | --- |
| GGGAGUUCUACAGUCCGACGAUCUUGGUAUACUGGUAUGACUACGUCUUAAGUCAGAUUUUUAUUUAUGAGUCUUUGAGACUAAAUUCAAUCACCACCAGGUAUCAAAUCAACUUUUAUGCAGCAAAUAUAUGUGGAAUUCUCGGGUGCCAA | 0.739 |
| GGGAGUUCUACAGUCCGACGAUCUUUUCAAAUUGGUGGAAAAGAGAAACUGCAGGAAAACUAUUCAUGUUUGAGUUUUACGCAGUAUAUUUUUUCCACAAAACCUGUAAAGAUUUAAGUUAUUUUAAUUUAUUUGGAAUUCUCGGGUGCCAA | 1.62 |
| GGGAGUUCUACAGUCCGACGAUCGCAUCCAGUAUGGUGGUGUAAUGGAAGUGUACUACUAGCACUACUACAUCAGGUCAGCACAGAUUAACUCAGUUACGUGUUAUACCUUCAAGACGCUAGACAUUCCAGAAUGGAAUUCUCGGGUGCCAA | 0.363 |
| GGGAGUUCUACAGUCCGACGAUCAAAUUACCAAGUUUGGUUUUUAAUAAUUUCACAAUAUUAUGCGCCAAGAUCUAAUUUUAAAAAUGUACGAGGACUUUGUGCUGAAAAUACAGAGUAUUUUUUUAAAGUAAUGGAAUUCUCGGGUGCCAA | 0.525 |
| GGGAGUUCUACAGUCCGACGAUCUUUCAUGUGUUAAGUUGCUUGAGUUACACCUUGUGACCCUUCUCCCAUAACAUGGUGUGAGGACGGACUGGGAGCCGGUACAGACUCCAGUGUUUACAGCCUUGCUUUCCUGGAAUUCUCGGGUGCCAA | 0.625 |
| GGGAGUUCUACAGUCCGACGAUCUCAUUAUCAUUAGGACCAUCAGAUUUUAGAUUAAGCUGCUAUUGAAUUAAUAAAAUCCCAAUGAAGCAGAGUUAUAGGGAUAGAUUUAUAGCUGGCAGAGUGGUAUCAAAUGGAAUUCUCGGGUGCCAA | 0.473 |
| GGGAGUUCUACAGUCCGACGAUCCUGGCCUCUGCCUUUCUCCCUCCUGCCUUCUGCUUGGGGAACUCAGGGCUUCACUCCCAGAGCACCCCCUUAAUCCCCACUUUUCAGGCCGUCUCAGUAUUGCCUAUGGGUGGAAUUCUCGGGUGCCAA | 0.35 |
| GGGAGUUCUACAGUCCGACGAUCUUCAUGGGACUUUAAAAAGAAUAAGUAUUUGAGAAAAUAUCUGGUUCACUUACACUACAUUUACUGUAUUAUUCUUUUAUAGCAUUAGGUGCCUUGUAUUUUAAAUCUGUUGGAAUUCUCGGGUGCCAA | 0.749 |
| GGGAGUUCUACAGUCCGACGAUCGAAAAAAAUCAGUUCUGUCUUUGUGGGUUGCUCUACUAUGGAGAUCAACAGUUACUGUGACUGAGUCGGCCCAUUCUGUUUAGAAAUAUAUUUUAAAUGUUUAGUAAUUGUGGAAUUCUCGGGUGCCAA | 0.29 |
| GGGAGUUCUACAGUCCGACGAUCUUGAGUUUCCAAUGGAACCCUUGUUUUUUAAUAAUCGACUUUUUAAAUGUGAUCAGGACUAUAAUAUUGUACAGUUAUUAUAGGGCUUUUGGGGAAGGGGAGGAUAGCGAUGGAAUUCUCGGGUGCCAA | 0.798 |
| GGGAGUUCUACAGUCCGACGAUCCAGGCUGGCCACAGGCAGUGGGCAGCUCACUUGCUGCAGUGUCAUAGCAAUAAAAUGUGAUUCUUGGGGUCUGCCCAGAGCUGCCCAUGGCUUUAUUUAUGAGUGUGGCUUGGAAUUCUCGGGUGCCAA | 0.628 |
| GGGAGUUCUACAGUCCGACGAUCCAACUUCUGCGGAAGGACACAGUAGUAACUCGCCUUCCUUGUGCAGAGCUAGGGCCCUACCUGAGCAAGUCGGCUGUGGCCCGGGAGGCAGCGUGACUCCUGCUGUCCUCUGGAAUUCUCGGGUGCCAA | 0.502 |

Set 2
Target: Phosphate system positive regulatory protein PHO4, full length, GST-tagged (PHO4, Saccharomyces cerevisiae, UniProt P07270, residues 1-312)
Method: competition protein-binding microarray
Form: double-stranded DNA, one strand shown
Sample: in vitro
Tested at: 2 µM
Notes: whole 60-bp probe, lowest competitor level
With: Cbf1 competitor, 0.05 µM
Reading: higher = stronger binding
Target sequence (chain): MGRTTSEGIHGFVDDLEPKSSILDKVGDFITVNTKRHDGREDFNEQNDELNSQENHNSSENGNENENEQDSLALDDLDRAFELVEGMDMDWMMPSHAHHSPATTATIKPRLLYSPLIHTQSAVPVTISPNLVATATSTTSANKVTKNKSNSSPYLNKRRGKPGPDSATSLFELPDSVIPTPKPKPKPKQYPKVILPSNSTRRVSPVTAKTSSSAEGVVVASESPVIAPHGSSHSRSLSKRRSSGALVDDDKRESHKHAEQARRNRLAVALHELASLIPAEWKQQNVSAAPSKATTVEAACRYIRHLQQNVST
| Strand | fluorescence intensity [a.u.] |
| --- | --- |
| TGCTTTTCCATTGGTTACGTGCTAAGTTGTTAGATAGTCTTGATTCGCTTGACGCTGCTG | 6290 |
| TCCTCTCTGGACGGCATCGTGTCGGACGACGCCGCAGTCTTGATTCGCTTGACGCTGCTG | 7160 |
| ACATATAGTTTTTTGCACGTGATGGAACTTCTAAGTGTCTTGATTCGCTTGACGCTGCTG | 16400 |
| CTTTCCCGATCTTGTATAGTGGGTGTAGCACATTTGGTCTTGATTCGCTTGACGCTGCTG | 5420 |
| TGCGTAAAAAAAAGACACATGTGAGACGCAGGAAAAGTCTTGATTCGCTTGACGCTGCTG | 10100 |
| AAATTACTAAGTTGTGGGGTGGGTGACGCCGTATGAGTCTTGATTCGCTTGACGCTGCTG | 6050 |
| TACAGGTCAATTCAACACGTGGTCGTTCTTCACCAGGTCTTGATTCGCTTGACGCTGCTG | 17400 |
| CATAAGAGGTTTGGACACGTTCTTAAGGCTAACTCCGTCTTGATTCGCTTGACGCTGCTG | 13400 |
| CTTCTGTAAATTTGAAGTGTGGGTGGACGCGCCCCGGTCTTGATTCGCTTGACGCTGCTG | 4910 |
| GCAACGCCCCCTTCCCACGTGGTCTTCTCCCTCTCCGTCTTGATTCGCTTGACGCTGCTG | 13500 |
| CTGTTTTAACATTGGCTCGTGACGGACTAGATCCTCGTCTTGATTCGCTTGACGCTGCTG | 7720 |
| AAAGGACCATTTAGGTACGTGGGACCGCAAAGGTTCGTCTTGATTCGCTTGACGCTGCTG | 6860 |
| AAAGCGGTAATTTGTTTCGTGGGTGCAGATATCTATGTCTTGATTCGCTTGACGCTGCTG | 5270 |
| CATACCCAACCTTGAAGAGTGGGTGAAGATATTTGTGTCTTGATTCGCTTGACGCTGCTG | 4060 |
| CGAAATAAAAGCCATCACGTGGAGTGTAGCACCGCCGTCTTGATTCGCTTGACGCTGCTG | 14600 |
| CTTTTCACTCTTCATCACATGATATTACCTTTACATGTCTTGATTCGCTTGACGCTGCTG | 7390 |
| CATACCCAACCTTTTCACGTGCGTTAAGATATTTGTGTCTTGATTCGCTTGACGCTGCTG | 15700 |
| CCGATGATATGATTGCACGTCCACTGAACAGGTTAAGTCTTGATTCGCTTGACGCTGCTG | 5470 |
| TCATTGTTACAGCCGCCCGTGGCCGTGTTCCACGGAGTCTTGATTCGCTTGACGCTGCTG | 9100 |
| CGGGGTTAAGTTTGTCACTAAACTTGCTTGCAGCAGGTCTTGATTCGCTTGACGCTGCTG | 3390 |
| CTTCAGATGTCAGACAACGTGCAAAATCTTTTTTTCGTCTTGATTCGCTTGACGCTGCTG | 13200 |
| CGGGGTTAAGTTTGTAACGTGGGTGGCTTGCAGCAGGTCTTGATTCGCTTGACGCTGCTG | 9990 |
| CTAACGAAGGTTTTTCACGTGTATTACAAGCCAAGTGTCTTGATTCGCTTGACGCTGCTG | 12100 |
| AGAAACGAAACAAATCATGTGTTACCCGTCCTGGACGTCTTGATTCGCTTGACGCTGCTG | 7140 |
| CACTTCCTGGGCATCCACATGCGAAGTTGAGCTAAAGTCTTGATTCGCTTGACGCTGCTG | 8760 |

Set 3
Target: ABI1, truncated, D143A, DHFR fusion (Arabidopsis thaliana)
Method: DHFR PCA, deep sequencing
Sample: yeast
Notes: methotrexate growth selection, single substitutions
With: (+)-ABA 0.0091 µM
Reference: wild-type fitted maximum
Reading: higher = stronger binding
Starting sequence: PYL1, truncated, DHFR fusion (Arabidopsis thaliana); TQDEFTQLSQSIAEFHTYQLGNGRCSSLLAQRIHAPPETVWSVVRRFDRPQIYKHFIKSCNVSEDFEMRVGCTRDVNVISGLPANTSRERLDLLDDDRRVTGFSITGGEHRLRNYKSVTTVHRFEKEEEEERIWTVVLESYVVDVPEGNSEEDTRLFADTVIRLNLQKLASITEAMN; partner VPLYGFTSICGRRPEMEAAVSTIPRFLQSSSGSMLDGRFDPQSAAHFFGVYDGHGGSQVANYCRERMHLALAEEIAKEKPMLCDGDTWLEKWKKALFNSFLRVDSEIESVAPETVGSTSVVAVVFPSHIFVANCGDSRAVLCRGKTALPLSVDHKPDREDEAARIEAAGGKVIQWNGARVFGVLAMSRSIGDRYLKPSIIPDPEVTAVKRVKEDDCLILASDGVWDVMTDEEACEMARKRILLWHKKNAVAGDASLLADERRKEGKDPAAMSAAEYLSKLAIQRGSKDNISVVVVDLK
| Substitution | relative binding score [%] |
| --- | --- |
| F15V | 2.55 |
| S27L | 1.32 |
| E109I | -7.46 |
| E128R | 13.3 |
| P83V | 5.91 |
| L82S | 11.7 |
| E139L | -2.44 |
| G107Q | 5.5 |
| N61I | 47.5 |
| A35N | -5.42 |
| Y115N | 3.94 |
| S87N | 9.52 |
| R155N | -5.16 |
| N77R | 50.8 |

Set 4
Target: Histone acetyltransferase KAT6A, winged helix 1, GST fusion (KAT6A, Homo sapiens, UniProt Q92794, residues 1-85)
Method: protein binding microarray
Form: double-stranded DNA, one strand shown
Sample: in vitro
Tested at: not given
Notes: 8-mer, flanks averaged, mean of 2 arrays, mostly near background
Reference: not given
Reading: higher = stronger binding
Residues (chain): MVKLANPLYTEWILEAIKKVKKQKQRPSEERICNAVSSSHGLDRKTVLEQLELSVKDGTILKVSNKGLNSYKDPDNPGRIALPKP
| Strand | E-score |
| --- | --- |
| TAAAATCA | -0.254 |
| AGGAACCA | -0.17 |
| ACCAGGAC | -0.0452 |
| TTAATCAA | -0.161 |
| ACCCACTC | -0.0523 |
| ACCACCAA | -0.206 |
| CCGTCTCG | 0.276 |
| GCCATCGC | 0.178 |
| ACCGGGTC | 0.256 |
| ATCCATGC | -0.111 |
| GACAAGAA | -0.0216 |
| TCTCAAAA | -0.215 |
| AACGAGAA | -0.223 |
| CGCGTCCC | 0.342 |
| AGCGCGGG | 0.408 |
| ACCGGGCG | 0.313 |
| ACAGCGAT | -0.0119 |
| GTTTGGTA | -0.0132 |
| CGCTGGAG | 0.11 |
| GGGCTGCA | -0.113 |
| CTAAACGA | 0.0222 |
| AAGTCAGC | -0.109 |
| ACTGGGCA | -0.272 |
| CGATCGAA | 0.0575 |

For quick reference, copied from above (set 2):
| Strand | fluorescence intensity [a.u.] |
| --- | --- |
| CTTCTGTAAATTTGAAGTGTGGGTGGACGCGCCCCGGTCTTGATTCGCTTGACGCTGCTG | 4910 |
| GCAACGCCCCCTTCCCACGTGGTCTTCTCCCTCTCCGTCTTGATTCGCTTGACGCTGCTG | 13500 |
| CTGTTTTAACATTGGCTCGTGACGGACTAGATCCTCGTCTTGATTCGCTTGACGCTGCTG | 7720 |
| AAAGGACCATTTAGGTACGTGGGACCGCAAAGGTTCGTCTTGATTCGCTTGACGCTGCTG | 6860 |
| AAAGCGGTAATTTGTTTCGTGGGTGCAGATATCTATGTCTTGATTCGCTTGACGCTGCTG | 5270 |
| CATACCCAACCTTGAAGAGTGGGTGAAGATATTTGTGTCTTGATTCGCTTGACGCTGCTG | 4060 |
| CGAAATAAAAGCCATCACGTGGAGTGTAGCACCGCCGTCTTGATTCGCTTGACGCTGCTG | 14600 |
| CTTTTCACTCTTCATCACATGATATTACCTTTACATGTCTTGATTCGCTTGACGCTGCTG | 7390 |
